Measured values from different studies.
Compare with care: the assays were run in different laboratories. Values joined by “and” are separate records of one study, mostly repeats; a detail may differ. ± gives the spread as reported.

SMILES	test	test system	conditions	scale	quantity	value
C[S]1CC[S]2CC[P](CO)(CO)[99Tc+]12.[C-]#[O+].[C-]#[O+].[C-]#[O+]		CF-1 mouse	intravenous, 4 h		uptake in small intestine	3.06 %ID and 3.1 %ID
CSCC[C@H](NC(=O)[C@H](CC(N)=O)NC(=O)[C@@H](N)Cc1ccccc1)C(=O)N[C@@H](CCC(N)=O)C(=O)N[C@@H](C)C(=O)N[C@@H](CCC(N)=O)C(=O)N[C@@H](CCCNC(=N)N)C(=O)N[C@@H](CCCNC(=N)N)C(=O)N[C@@H](Cc1ccccc1)C(=O)N[C@@H](Cc1ccc(O)cc1)C(=O)N[C@@H](CCC(=O)O)C(=O)N[C@@H](C)C(=O)N[C@@H](CC(C)C)C(=O)N[C@@H](Cc1c[nH]cn1)C(=O)N[C@@H](CC(=O)O)C(=O)NCC(=O)NCC(=O)NCC(=O)NCC(=O)N[C@@H](CO)C(=O)N[C@@H](C)C(=O)N[C@@H](CCC(=O)O)C(=O)N[C@@H](C)C(=O)N[C@@H](CCC(=O)O)C(=O)N[C@@H](C)C(=O)N[C@@H](CCCCN)C(=O)N[C@@H](C)C(=O)N[C@@H](CCCCN)C(=O)N[C@@H](C)C(=O)N[C@@H](CCC(=O)O)C(=O)N[C@@H](C)C(=O)N[C@@H](CCC(=O)O)C(=O)N[C@@H](C)C(=O)N[C@@H](CCCCN)C(=O)N[C@@H](C)C(=O)N[C@@H](CCCCN)C(=O)O		EAK peptide fibrils	overnight, 37 °C, PBS, added: EAK to compound ratio 20:1		incorporation into fibrils	58%
N#Cc1c(O)c(Cl)c(Cl)c(C#N)c1Cl		healthy human volunteers, plasma	oral, dose not given, geometric mean, added: rosuvastatin		rosuvastatin AUC(0-4 h)	0.0101 µg·h/mL
CC(C)[C@H](NC(=O)CNC(=O)[C@H](CCC(N)=O)NC(=O)[C@H](C)N)C(=O)O	at least one event	human	90 mg/kg/h, continuous infusion		subjects with adverse events	66.7%
CC[C@H](C)C(=O)N1CCC(NC(=O)Nc2ccc(OC(F)(F)F)c(F)c2)CC1		human, plasma	oral, 16 mg, single dose, healthy volunteers		Cmax	220 ng/mL
CC[C@H](C)[C@H](NC(=O)[C@H](CCCCN)NC(=O)CNC(=O)[C@H](CC(C)C)NC(=O)[C@@H](NC(=O)[C@H](C)NC(=O)[C@H](CCCCN)NC(=O)CNC(=O)[C@H](C)NC(=O)CNC(=O)[C@H](CCCCN)NC(=O)[C@H](CCSC)NC(=O)[C@H](CCCCN)NC(=O)[C@@H](NC(=O)[C@H](Cc1c[nH]c2ccccc12)NC(=O)[C@H](CC(C)C)NC(=O)[C@H](CCC(N)=O)NC(=O)[C@H](CCCCN)NC(=O)[C@H](CC(C)C)NC(=O)[C@@H](N)CC(C)C)[C@@H](C)O)C(C)C)C(=O)N[C@@H](CCCCN)C(=O)NCC(=O)N[C@@H](CC(C)C)C(=O)N[C@@H](CC(C)C)C(=O)O	acrylamide quenching	POPE:DOPG 3:1 vesicles	2 µM, 250 µM total lipid, added: acrylamide		Stern-Volmer constant	1.63 ± 0.08 M⁻¹
CC(C)C[C@H](NC(=O)[C@H](CCCCN)NC(=O)[C@H](CCC(=O)O)NC(=O)[C@H](C)NC(=O)[C@@H](NC(=O)[C@H](CCCCN)NC(=O)[C@H](CC(=O)O)NC(=O)[C@H](Cc1ccc(O)cc1)NC(=O)[C@H](Cc1ccccc1)NC(=O)[C@H](C)NC(=O)[C@H](CCCCN)NC(=O)[C@H](CC(C)C)NC(=O)[C@H](Cc1c[nH]c2ccccc12)NC(=O)[C@@H](N)CC(=O)O)C(C)C)C(=O)N[C@@H](CCCCN)C(=O)N[C@@H](CCC(=O)O)C(=O)N[C@@H](C)C(=O)N[C@@H](Cc1ccccc1)C(=O)N1CCC[C@H]1C(=O)N[C@@H](CC(=O)O)C(=O)N[C@@H](Cc1c[nH]c2ccccc12)C(=O)N[C@@H](C)C(=O)N[C@@H](CCCCN)C(=O)N[C@@H](C)C(=O)N[C@@H](C)C(=O)N[C@@H](Cc1ccc(O)cc1)C(=O)N[C@@H](CC(=O)O)C(=O)N[C@@H](CCCCN)C(=O)N[C@@H](C)C(=O)N[C@@H](C)C(=O)N[C@@H](CCC(=O)O)C(=O)N[C@@H](CCCCN)C(=O)N[C@@H](C)C(=O)N[C@@H](CCCCN)C(=O)N[C@@H](CCC(=O)O)C(=O)N[C@@H](C)C(=O)N[C@@H](C)C(=O)O		cynomolgus monkey female, plasma	intravenous infusion, 75 mg/kg, day 1, 30 min infusion		AUC(0-last)	8480 µg·h/mL
CC(C)[C@H](NC(=O)CNC(=O)[C@H](CCC(N)=O)NC(=O)[C@H](C)N)C(=O)O		healthy male volunteers	intravenous, 90 mg/kg/h, 2 h, added: LPS 2 ng/kg		subjects given concomitant medication	0%
CN(C)C(CNC(=O)Nc1cc(C(F)(F)F)ccc1N1CCOCC1)c1ccncc1 (centres unmarked)		mouse, serum	intraperitoneal, 360 mg/kg single dose		serum chloride	114 mmol/L
COC(=O)C[C@](O)(CCCC(C)(C)OC(C)=O)C(=O)O[C@@H]1C(OC)=C[C@]23CCCN2CCc2cc4c(cc2[C@H]13)OCO4		CD1 mouse, lung	subcutaneous, 1 mg/kg, 24 h, below quantification limit 1.00 ng/mL		tissue concentration	not detected
C[C@@H](O)[C@H](NC(=O)[C@H](CCCCN)NC(=O)COCCN)C(=O)N[C@@H](CCCNC(=N)N)C(=O)NC(C)(C)C(=O)N[C@@H](CCCNC(=N)N)C(=O)NC(C)(C)C(=O)N[C@H](C(=O)N[C@@H](CO)C(=O)N[C@@H](Cc1c[nH]cn1)C(=O)N[C@@H](Cc1ccc(O)cc1)C(=O)NCC(=O)O)[C@@H](C)O		C57BL/6 mouse, blood	intravenous, 50 mg/kg, 10 h	relative to: leukocytes	monocytes	3 to 5%
CN[C@](C)(C[18F])C(=O)O		SCID mouse MDA-MB-468 xenograft, heart	60 min post injection		tissue uptake	2.7 ± 0.8 %ID/g
N=C(N)NCc1ccc(C(=O)NCCCC[C@H](NC(=O)N[C@@H](CCC(=O)O)C(=O)O)C(=O)O)cc1[131I]		SCID mouse, PC-3 xenografts, thyroid	21 h		tissue uptake	0.19 ± 0.06 %ID/g
[2H]C([2H])([2H])C([2H])([2H])C([2H])([2H])OC(C(=O)OC1CCNCC1)(c1ccccc1)c1ccccc1		healthy Japanese male, plasma	oral, dose not given, 16 days	relative to: single dose	accumulation ratio	5
